Assay results of several laboratories.
Each numbered part is a random draw from the data of one study; scales do not carry over between parts.

Set 1
Target: RING finger protein unkempt homolog, zinc fingers 1-6, GST-SBP tag (UNK, Homo sapiens, UniProt Q9C0B0, residues 30-357)
Sequence of UniProt Q9C0B0 (30-357, looked up): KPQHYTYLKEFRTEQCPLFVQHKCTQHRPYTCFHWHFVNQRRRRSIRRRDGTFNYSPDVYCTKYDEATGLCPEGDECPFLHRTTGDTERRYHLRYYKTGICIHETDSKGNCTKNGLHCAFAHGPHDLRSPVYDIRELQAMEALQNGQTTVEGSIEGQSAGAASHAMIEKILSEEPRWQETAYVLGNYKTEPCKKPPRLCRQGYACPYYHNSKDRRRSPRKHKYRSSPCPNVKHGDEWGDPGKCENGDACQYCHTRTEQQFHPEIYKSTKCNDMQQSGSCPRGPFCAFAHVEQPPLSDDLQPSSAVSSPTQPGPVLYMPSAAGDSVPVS
Method: RNA Bind-n-Seq
Molecule type: RNA
Medium: in vitro
Concentration: not given
Setting: RNA with constant flanks, human and mouse sites, ends assumed
Relative to: input RNA pool
Direction: higher = stronger binding
Sequence	bound/input enrichment
GGGAGUUCUACAGUCCGACGAUCCCCCAUCUCUUCCCUGUGGGUCAUCAGAGUUAGGUACCUAGCUCUGACAUGGCUCUUUGCCUCUAUCUAGGUGAGGGUCCCGAUGUCCUGGUGUACAGCUUGGACUUUGGUGGGCAUCUGCAACAGAGGAUUGAGCAUCA	0.136 ratio
GGGAGUUCUACAGUCCGACGAUCGGAUUGGCAGAUGCAGGUCUAGAUUUAAAAGGAACUUGCAUUAGUGAAAGUGAAGAAUGUGAUUUCUCCACUGUUAUAGACACACCAGCAGCAAAUUAUCUAUCUAAUGGUUGUGAUUCCCAACAGAGGAUUGAGCAUCA	0.75 ratio
GGGAGUUCUACAGUCCGACGAUCUGUGUGGCCAGAGCUUGCACAGGAGGAAAGCAGGCUGCUGAAUUUAGUCACUGAUCUCUAUUAGCGGUAGCCUAAGGCUAUGCUGAGGUUUAUAUCCCAUUUGUAUUGUUGCAGCUCAAACAACAGAGGAUUGAGCAUCA	0.418 ratio
GGGAGUUCUACAGUCCGACGAUCAUUGGAGAACAUCAAUUAACAGGCCAUAAAGUGGCAGUUAAAAUCUUAAAUAGACAGAAGAUUCGCAGUUUAGAUGUUGUUGGAAAAAUAAAACGAGAAAUUCAAAAUCUAAAACUCUUUCAACAGAGGAUUGAGCAUCA	0.253 ratio

Set 2
Target: Interferon regulatory factor 5, full length, phosphomimetic (IRF5, Homo sapiens, UniProt Q13568-2, residues 1-514, K96S/S451D/S453D/S456D/S462D)
Method: protein-binding microarray
Molecule type: double-stranded DNA, one strand shown
Medium: in vitro
Concentration: 250 nM
Setting: 60-bp whole probe
With: salmon DNA 0.4 mg/ml
Relative to: random background probes
Direction: higher = stronger binding
All sequences stand within: GCCTAGCAC … GTCTTGATTCGCTTGACGCTGCTG
Sequence	log fluorescence
TTAGATTTCGCGTTTCGATTAGTGCTA	6.07 z-score
CGTATCTTCATTGTCATGTAGTGCTAG	0.686 z-score
TTAGGTCTCGTACTGGGTTAGTGCTAG	-0.131 z-score
TCATAAATGATATATATCACTGTGCTA	1.02 z-score
CACGGTTCCGGTTTCGGGACGTGCTAG	4.14 z-score
TCAAGTTTTCCTTCATGACTGTGCTAG	0.826 z-score
GACGAGATCAGTATCGAGACGTGCTAG	2.3 z-score

Set 3
Target: Sal-like protein 4, full length isoform A (SALL4, Homo sapiens, UniProt Q9UJQ4, residues 1-1053)
Sequence of UniProt Q9UJQ4 (whole entry, looked up): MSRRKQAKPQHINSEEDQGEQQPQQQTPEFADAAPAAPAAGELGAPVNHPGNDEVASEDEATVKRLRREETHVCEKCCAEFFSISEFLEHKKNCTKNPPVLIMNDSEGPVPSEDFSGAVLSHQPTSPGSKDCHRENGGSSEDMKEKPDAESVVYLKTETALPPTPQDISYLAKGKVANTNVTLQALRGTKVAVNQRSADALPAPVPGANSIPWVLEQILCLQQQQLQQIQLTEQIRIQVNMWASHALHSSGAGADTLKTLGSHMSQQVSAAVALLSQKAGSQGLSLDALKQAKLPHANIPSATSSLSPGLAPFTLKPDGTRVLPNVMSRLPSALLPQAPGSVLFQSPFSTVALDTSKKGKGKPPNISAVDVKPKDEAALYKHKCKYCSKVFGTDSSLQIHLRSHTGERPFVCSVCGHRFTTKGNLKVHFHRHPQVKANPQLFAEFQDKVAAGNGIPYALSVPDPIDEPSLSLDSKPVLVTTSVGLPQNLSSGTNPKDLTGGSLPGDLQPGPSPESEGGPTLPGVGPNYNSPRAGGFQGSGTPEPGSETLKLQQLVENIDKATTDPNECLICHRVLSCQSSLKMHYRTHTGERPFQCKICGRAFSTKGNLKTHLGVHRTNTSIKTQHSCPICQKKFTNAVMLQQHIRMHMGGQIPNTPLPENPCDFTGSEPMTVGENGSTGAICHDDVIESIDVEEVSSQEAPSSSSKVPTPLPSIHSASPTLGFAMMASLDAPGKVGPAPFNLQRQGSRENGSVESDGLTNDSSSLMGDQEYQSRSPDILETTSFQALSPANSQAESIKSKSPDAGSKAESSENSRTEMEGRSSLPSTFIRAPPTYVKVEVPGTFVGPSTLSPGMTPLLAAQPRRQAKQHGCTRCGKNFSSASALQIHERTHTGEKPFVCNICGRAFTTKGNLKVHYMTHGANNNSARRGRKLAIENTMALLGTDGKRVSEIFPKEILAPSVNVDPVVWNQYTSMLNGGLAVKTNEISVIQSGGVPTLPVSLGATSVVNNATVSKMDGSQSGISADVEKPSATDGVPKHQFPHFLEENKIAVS
Method: universal PBM
Molecule type: double-stranded DNA, one strand shown
Medium: in vitro
Concentration: 600 nM
Setting: 8-mer, flanks averaged, mean of replicates
Direction: higher = stronger binding
Sequence	E-score
CTGTTCGC	-0.0538
CACAGGCA	-0.138
GAATAGCA	0.142
CTAGACAC	0.00115
TCATGAGA	0.0256

Single results of other studies
Substance	target	assay	system	conditions	how to read	quantity	result
PhoQ, residues 284 288 289 292 302 303 SSYNSA	PhoP, residues 12 14 15 18 19 LHSVW (Escherichia coli, UniProt P23836)	Sort-seq, item: YFP reporter	E. coli	PhoQ-PhoP variant library, with: 10 µM Mg2+	relative to: high Mg2+ state, higher = stronger signaling	fold induction	12.3

Repeated from above (set 1):
Sequence	bound/input enrichment
GGGAGUUCUACAGUCCGACGAUCCCCCAUCUCUUCCCUGUGGGUCAUCAGAGUUAGGUACCUAGCUCUGACAUGGCUCUUUGCCUCUAUCUAGGUGAGGGUCCCGAUGUCCUGGUGUACAGCUUGGACUUUGGUGGGCAUCUGCAACAGAGGAUUGAGCAUCA	0.136 ratio
GGGAGUUCUACAGUCCGACGAUCGGAUUGGCAGAUGCAGGUCUAGAUUUAAAAGGAACUUGCAUUAGUGAAAGUGAAGAAUGUGAUUUCUCCACUGUUAUAGACACACCAGCAGCAAAUUAUCUAUCUAAUGGUUGUGAUUCCCAACAGAGGAUUGAGCAUCA	0.75 ratio
